Results of several laboratories.
Numbered parts are unrelated; each lists some results of a single study. Changes are numbered by the printed parent chain.

Block 1
Target: PABPC1L2, full length, GST fusion (mouse, UniProt A0ABA7IW68)
Technique: RNAcompete
Form: RNA
Sample: in vitro
Concentration: 20 nM
Notes: 7-mer, probes averaged, single round
Baseline: mean of 7-mers
Reading: higher = stronger binding
Target sequence (chain): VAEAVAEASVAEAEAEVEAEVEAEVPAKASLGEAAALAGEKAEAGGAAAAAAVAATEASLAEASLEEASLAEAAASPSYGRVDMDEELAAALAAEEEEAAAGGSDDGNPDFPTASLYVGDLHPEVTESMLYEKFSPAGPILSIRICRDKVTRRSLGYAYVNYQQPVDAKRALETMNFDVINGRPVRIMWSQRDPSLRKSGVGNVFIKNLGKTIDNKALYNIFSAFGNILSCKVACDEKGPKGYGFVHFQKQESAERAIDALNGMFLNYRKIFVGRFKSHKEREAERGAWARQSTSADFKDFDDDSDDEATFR
Oligonucleotide | 7-mer Z-score
GAACUUC | -0.246
GCGAGGU | 0.108
AACGGUG | 0.128
UUUUAAU | -0.113
CGUAGGA | -0.00289
UGCAGUA | -0.22
GCACUUU | -0.132
GAGCAUA | 0.0805
UUCUUAA | -0.209
GGCACGG | 0.225
AUGAGUG | -0.0989
GCCCCGG | -0.396
GCCGUAU | -0.376

Block 2
Target: Interferon regulatory factor 5, full length, phosphomimetic (IRF5, Homo sapiens, UniProt Q13568-2, residues 1-514, S451D/S453D/S456D/S462D)
Technique: protein-binding microarray
Form: double-stranded DNA, one strand shown
Sample: in vitro
Concentration: 940 nM top
Notes: 60-bp whole probe
Together with: salmon DNA 0.4 mg/ml
Baseline: random background probes
Reading: higher = stronger binding
Constant ends, left off below: GCCTAGCAC … GTCTTGATTCGCTTGACGCTGCTG
Oligonucleotide | fitted relative affinity [z-score]
GACGGTCTCGGGACTGGGGACGTGCTA | 0.854
GACGGACTGGGGACTGGGGGCGTGCTA | 0.15
TTAGGTCTCGGTCTCGGTTGGTGCTAG | 5.35
TGTTACTAGGGTTACATAATGTGCTAG | -0.211
GACGAACTGAGACAGGAGACGTGCTAG | -0.321
GACGATCTCACTCTCGAGACGTGCTAG | 1.78
TTACAACTGAGACTGGATTAGTGCTAG | 0.215
TCAGTTACCCCTCATCAAACTGTGCTA | 0.749

Block 3
Target: Centromere-binding protein 1, full length, His-tagged (CBF1, Saccharomyces cerevisiae, UniProt P17106, residues 1-351)
UniProt P17106, sequence (whole entry, looked up): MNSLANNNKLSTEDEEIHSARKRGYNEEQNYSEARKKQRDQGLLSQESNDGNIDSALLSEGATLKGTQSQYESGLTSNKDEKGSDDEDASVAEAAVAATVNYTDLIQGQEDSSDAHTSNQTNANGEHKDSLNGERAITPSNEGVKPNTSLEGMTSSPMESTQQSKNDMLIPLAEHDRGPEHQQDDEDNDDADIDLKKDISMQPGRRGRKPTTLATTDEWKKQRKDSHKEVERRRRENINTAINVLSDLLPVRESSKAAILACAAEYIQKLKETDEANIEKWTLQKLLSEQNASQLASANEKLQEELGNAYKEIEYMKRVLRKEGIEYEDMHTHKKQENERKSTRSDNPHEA
Technique: competition protein-binding microarray
Form: double-stranded DNA, one strand shown
Sample: in vitro
Concentration: 2 µM
Notes: whole 60-bp probe, lowest competitor level
Together with: Pho4 competitor, 0.05 µM
Reading: higher = stronger binding
Constant ends, left off below: … GTCTTGATTCGCTTGACGCTGCTG
Oligonucleotide | fluorescence intensity [a.u.]
CATACCCAACCTTGCGCAGTGGGTGAAGATATTTGT | 76.3
TATGAATGCAACGGCCACGTGGGTAGAATGGGAGGA | 1100
AATTTGGTAAGCCATCACGTGGTGAGACAGTTTTCC | 4440
AATTTTGGAGCTTGACATGTGGCCTCAATTGCATAA | 153
TCTTAGCAGTGAGGACACGGGAGTTGCAGATCAATC | 75.2
AAAGCGGTAATTTGGCACGTGGGTGCAGATATCTAT | 1350
ACTATACTCGTCTGGCACGTGAAGTACATGAACTCA | 1270
CTCAAGGGCGTACACCATGTGTTGGACATAAACCTC | 88.5
AGATACATACATGAACATATGCACTTATAGCGCCCA | 78

Block 4
Target: ABI1, truncated, D143A, DHFR fusion (Arabidopsis thaliana)
Technique: DHFR PCA, deep sequencing
Sample: yeast
Notes: methotrexate growth selection, single substitutions
Together with: (+)-ABA 1.4 µM
Baseline: wild-type fitted maximum
Reading: higher = stronger binding
Starting sequence: PYL1, truncated, DHFR fusion (Arabidopsis thaliana); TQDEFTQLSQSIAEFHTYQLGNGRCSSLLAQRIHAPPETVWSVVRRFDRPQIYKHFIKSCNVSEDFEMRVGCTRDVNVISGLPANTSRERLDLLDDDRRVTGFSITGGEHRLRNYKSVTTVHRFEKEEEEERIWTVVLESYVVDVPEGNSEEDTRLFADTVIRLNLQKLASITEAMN; partner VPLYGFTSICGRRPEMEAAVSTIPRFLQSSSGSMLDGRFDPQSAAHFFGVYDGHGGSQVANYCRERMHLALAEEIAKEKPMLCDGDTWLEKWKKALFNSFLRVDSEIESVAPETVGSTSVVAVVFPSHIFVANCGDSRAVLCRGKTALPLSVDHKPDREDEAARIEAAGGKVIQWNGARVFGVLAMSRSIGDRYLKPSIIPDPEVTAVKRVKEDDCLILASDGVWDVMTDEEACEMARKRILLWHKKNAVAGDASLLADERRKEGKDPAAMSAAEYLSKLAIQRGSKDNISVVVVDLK
Substitution | relative binding score [%]
C60Q | -5.46
R69Y | 21.1
E139A | 17.3
E14Y | -7.22
T173P | -21.7
R155C | 30.9
V137L | 0.0465
E4T | 51.3
Q19Y | 20
T173F | -14.8
A158M | 11.5
F124W | 66.3
T173K | -8.1
S11E | 73.3
Y141L | -9.22
I79R | 5.47
D144W | -22.6

Block 5
Target: CCNE2, cyclin fold, Cln2 fusion (human)
Technique: yeast growth competition, sequencing
Sample: yeast
Notes: strong parent motif
Baseline: not given
Reading: higher = stronger binding
Starting sequence: WEE1 docking peptide (human); HKTFRKLRLFDTP
Substitution | normalised enrichment score
L7H | -0.128
T12F | -0.068
H1D | 1.55
H1C | 1
R8W | 1.59
T3H | 1.3
R5N | -5.48
F10A | 1.01
H1Y | 0.147
F4M | 1.11
T3F | 1.04
R5K | 0.168
D11E | 0.391
D11S | 0.938
D11G | 0.0928
H1W | 1.29
H1T | 1.17
L9D | -0.523

Block 6
Target: Histone acetyltransferase KAT6A, both winged helices, GST fusion (KAT6A, Homo sapiens, UniProt Q92794, residues 1-181)
Technique: protein binding microarray
Form: double-stranded DNA, one strand shown
Sample: in vitro
Concentration: not given
Notes: 8-mer, flanks averaged, mean of 2 arrays, mostly near background
Baseline: not given
Reading: higher = stronger binding
Construct (chain): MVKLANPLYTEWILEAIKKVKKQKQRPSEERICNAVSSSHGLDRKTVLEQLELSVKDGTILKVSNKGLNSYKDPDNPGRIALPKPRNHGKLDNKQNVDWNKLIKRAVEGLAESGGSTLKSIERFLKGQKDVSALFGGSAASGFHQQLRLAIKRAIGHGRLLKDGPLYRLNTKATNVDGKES
Oligonucleotide | E-score
ATCTCGGC | 0.135
CGTGTCCA | 0.00393
AATCTACC | 0.0463
AGTTACTG | -0.117
TTTGAAAA | -0.0417
ATGTACGC | 0.0958
AGGAACAC | -0.0118
AGACCTCT | -0.0869
CGGCGCAG | 0.289
ACAGTCCG | 0.0819
AGCCGTGG | 0.185
GGGAATAC | 0.0489
ATTAGAGA | -0.179
ATAACGGA | 0.0924
GGTGATAC | -0.0674
AGCCTACC | -0.12
GTTTCTTA | -0.0433
CTATCGAG | -0.0527
ATGCTGTG | -0.1
CGACGCCG | 0.376
CGGCTCTC | 0.211

A few entries again (block 2):
Oligonucleotide | fitted relative affinity [z-score]
GACGATCTCACTCTCGAGACGTGCTAG | 1.78
GACGGACTGGGGACTGGGGGCGTGCTA | 0.15
TGTTACTAGGGTTACATAATGTGCTAG | -0.211
GACGGTCTCGGGACTGGGGACGTGCTA | 0.854
TCAGTTACCCCTCATCAAACTGTGCTA | 0.749
TTAGGTCTCGGTCTCGGTTGGTGCTAG | 5.35
TTACAACTGAGACTGGATTAGTGCTAG | 0.215
GACGAACTGAGACAGGAGACGTGCTAG | -0.321
